Results from different studies.
Every numbered part comes from another study and shows a few of its results, in no order. Changes are numbered by the printed parent chain.

Set 1
Target: CCNB2, cyclin fold, Cln2 fusion (human)
Method: yeast growth competition, sequencing
Matrix: yeast
Setting: weak parent motif
Baseline: not given
Direction: higher = stronger binding
Parent: REV3L docking peptide (human); PPVIIKYIIINRF; partner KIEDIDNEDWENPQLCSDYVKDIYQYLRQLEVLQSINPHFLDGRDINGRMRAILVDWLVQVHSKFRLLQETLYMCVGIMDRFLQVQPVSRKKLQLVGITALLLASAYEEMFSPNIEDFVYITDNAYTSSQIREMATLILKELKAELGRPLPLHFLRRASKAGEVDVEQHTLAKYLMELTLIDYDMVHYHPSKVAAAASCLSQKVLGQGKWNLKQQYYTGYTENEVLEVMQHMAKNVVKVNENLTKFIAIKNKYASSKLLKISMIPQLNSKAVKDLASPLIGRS
For `PPVIIKAIIINRF [Y7A]`, “normalised enrichment score” read 0.369.
Under “normalised enrichment score”, `PPVIIKYIAINRF [I9A]` is recorded as -0.382.
`PPVIIKYIIIARF [N11A]`: “normalised enrichment score” 0.905.
For `PPVAIKYIIINRF [I4A]`, “normalised enrichment score” read -0.0422.
`APVIIKYIIINRF [P1A]`: “normalised enrichment score” 0.521.
For `PPAIIKYIIINRF [V3A]`, “normalised enrichment score” read 0.514.

Set 2
Target: ABI1, truncated, D143A, DHFR fusion (Arabidopsis thaliana)
Method: DHFR PCA, deep sequencing
Matrix: yeast
Setting: methotrexate growth selection, single substitutions
Added: (+)-ABA 0.11 µM
Baseline: wild-type fitted maximum
Direction: higher = stronger binding
Parent: PYL1, truncated, DHFR fusion (Arabidopsis thaliana); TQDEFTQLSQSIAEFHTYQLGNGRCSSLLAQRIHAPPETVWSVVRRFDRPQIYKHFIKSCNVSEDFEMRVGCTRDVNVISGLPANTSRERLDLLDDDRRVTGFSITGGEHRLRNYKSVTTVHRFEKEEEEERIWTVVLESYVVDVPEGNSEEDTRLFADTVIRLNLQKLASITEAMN
`Q10A` — result for “relative binding score”: 50.6%.
`R74I`: “relative binding score” 1.73%.
`Y53H`: “relative binding score” 6.83%.
For `A158K`, “relative binding score” read -16.3%.
`R111G`: “relative binding score” 4.26%.
`S104T`: “relative binding score” 41.2%.
`R46N`: “relative binding score” -11.9%.
For `Y141P`, “relative binding score” read 4.12%.
`T154D` — result for “relative binding score”: -8.93%.
Under “relative binding score”, `V118M` is recorded as 4.23%.
`R45D` — result for “relative binding score”: -2.69%.
Under “relative binding score”, `R46T` is recorded as -1.28%.
`V161G` — result for “relative binding score”: -8.38%.
`D92Y`: “relative binding score” 6.64%.
Under “relative binding score”, `D3L` is recorded as 27.9%.
`N165A` — result for “relative binding score”: 5.2%.
Under “relative binding score”, `N77V` is recorded as 61.4%.
`E109K` — result for “relative binding score”: 1.88%.

Set 3
Target: Interferon regulatory factor 3, full length, phosphomimetic (IRF3, Homo sapiens, UniProt Q14653, residues 1-427, S386D/S396D/S398D/S402D/T404D/S405D)
Sequence of UniProt Q14653 (whole entry, unmodified, looked up): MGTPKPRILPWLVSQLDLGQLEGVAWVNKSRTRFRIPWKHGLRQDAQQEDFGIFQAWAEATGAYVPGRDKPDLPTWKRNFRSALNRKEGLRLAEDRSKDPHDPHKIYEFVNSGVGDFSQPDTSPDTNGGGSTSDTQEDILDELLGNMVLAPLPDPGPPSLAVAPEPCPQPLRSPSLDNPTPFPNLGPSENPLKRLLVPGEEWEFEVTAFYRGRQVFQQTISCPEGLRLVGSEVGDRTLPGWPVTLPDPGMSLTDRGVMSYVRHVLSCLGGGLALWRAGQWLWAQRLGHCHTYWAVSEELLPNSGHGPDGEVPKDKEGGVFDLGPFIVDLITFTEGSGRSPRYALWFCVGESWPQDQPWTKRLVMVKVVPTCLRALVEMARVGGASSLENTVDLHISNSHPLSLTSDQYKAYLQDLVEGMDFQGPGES
Method: protein-binding microarray
Molecule type: double-stranded DNA, one strand shown
Matrix: in vitro
Tested at: 2540 nM top
Setting: 60-bp whole probe
Added: salmon DNA 0.4 mg/ml
Baseline: random background probes
Direction: higher = stronger binding
All sequences stand within: GCCTAGCAC … GTCTTGATTCGCTTGACGCTGCTG
Under “fitted relative affinity”, `TCATTTTTTTCTTTAAAACTGTGCTAG` is recorded as 1.42 z-score.
`GACGGACTGGGTTTCGGGATGTGCTAG`: “fitted relative affinity” 1.4 z-score.
Under “fitted relative affinity”, `GACGGTCTCCTATTCCTGACGTGCTAG` is recorded as 2.3 z-score.
Under “fitted relative affinity”, `TTTGGTATCGGGTATCGGTTAGTGCTA` is recorded as 2.28 z-score.
`GTAGGTCTCGGACTGGGTTAGTGCTAG` — result for “fitted relative affinity”: -0.321 z-score.
`GACGGACTGGGCCTGGGGACGTGCTAG`: “fitted relative affinity” -1.07 z-score.
`GACGGACTGGGGACTGGGGAGGTGCTA` — result for “fitted relative affinity”: -0.885 z-score.
`GACGGACTGGACACTGGGAACGTGCTA`: “fitted relative affinity” -0.68 z-score.
`GACGAGCTCAGACTGGAGACGTGCTAG` — result for “fitted relative affinity”: -0.506 z-score.
`TGAGGACTGGGGTATCGGTTAGTGCTA` — result for “fitted relative affinity”: -0.414 z-score.
Under “fitted relative affinity”, `TTAGAACTGAGTTTCTATTAGTGCTAG` is recorded as 0.772 z-score.
`AACACAAACCCGCTGGAGTTGTGCTAG`: “fitted relative affinity” -0.0755 z-score.
For `TCAAATTAGAATTTAAAACTGTGCTAG`, “fitted relative affinity” read 0.222 z-score.
`TCATGGTCCTCTCTCTAACTGTGCTAG`: “fitted relative affinity” 0.117 z-score.
Under “fitted relative affinity”, `GACGGACTGCTTATTCTGACGTGCTAG` is recorded as -0.217 z-score.
For `TTAGATATCAGGATCGATTAGTGCTAG`, “fitted relative affinity” read 0.73 z-score.
Under “fitted relative affinity”, `GACGATTTCAATATCGAGACGTGCTAG` is recorded as 1.7 z-score.
`TTAGATATCAGTCTCGAGTAGTGCTAG`: “fitted relative affinity” 0.833 z-score.
For `TTAGATTTCAGACCGGATTAGTGCTAG`, “fitted relative affinity” read 0.546 z-score.
For `TCAGATTTCGGGACTGGATTAGTGCTA`, “fitted relative affinity” read 1.61 z-score.

Set 4
Target: UBE2L3 UBC core domain (UniProt P68036)
Sequence of UniProt P68036 (whole entry, looked up): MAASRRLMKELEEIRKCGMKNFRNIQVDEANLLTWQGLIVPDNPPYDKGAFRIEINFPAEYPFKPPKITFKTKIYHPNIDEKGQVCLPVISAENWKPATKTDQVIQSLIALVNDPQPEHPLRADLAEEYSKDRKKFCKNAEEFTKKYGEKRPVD
Method: yeast two-hybrid
Matrix: yeast
Setting: mostly zero background
Baseline: not given
Direction: higher = stronger interaction
B1: ARK2C RING domain (UniProt Q6ZSG1); chain EGEESDTDEKCTICLSMLEDGEDVRRLPCMHLFHQLCVDQWLAMSKKCPICRVDIETQLGAD
B2: ZNF598 RING domain (UniProt Q86UK7); chain AAAPERGGGSCVLCCGDLEATALGRCDHPVCYRCSTKMRVLCEQRYCAVCREELRQVVFGK
B3: PHF21A RING domain (UniProt Q96BD5); chain SPTSTDGDIHEDFCSVCRKSGQLLMCDTCSRVYHLDCLDPPLKTIPKGMWICPRCQDQMLKKEEAIPW
B4: TRIM72 RING domain (UniProt Q6ZMU5); chain APGLLHQELSCPLCLQLFDAPVTAECGHSFCRACLGRVAGEPAADGTVLCPCCQAPTRPQALST
B5: CUL9 RING domain (UniProt Q8IWT3); chain AQAVPVRPDHCPVCVSPLGCDDDLPSLCCMHYCCKSCWNEYLTTRIEQNLVLNCTCPIADCPAQPTGAFIR
B6: TRIM69 RING domain (UniProt Q86WT6); chain VIQDITMELHCPLCNDWFRDPLMLSCGHNFCEACIQDFWRLQAKETFCPECKMLCQYNNCTF
B7: MID1 RING domain (UniProt O15344); chain METLESELTCPICLELFEDPLLLPCAHSLCFNCAHRILVSHCATNESVESITAFQCPTCRHVITLSQRGL
`B1 (ARK2C RING domain)`: “lacZ reporter activity” 0.
Under “lacZ reporter activity”, `PEELQAMDNVCIICREEMVTGAKRLPCNHIFHTSCLRSWFQRQQTCPTCRMDVLRASLPA (SYVN1 RING domain (UniProt Q86TM6))` is recorded as 0.
`QHHELTSLFECPVCFDYVLPPILQCQAGHLVCNQCRQKLSCCPTCRGALTPSIRNL (SIAH2 RING domain (UniProt O43255))`: “lacZ reporter activity” 0.
`B2 (ZNF598 RING domain)`: “lacZ reporter activity” 0.
Under “lacZ reporter activity”, `B3 (PHF21A RING domain)` is recorded as 0.
`DDENSDNSNECVVCLSDLRDTLILPCRHLCLCTSCADTLRYQANNCPICRLPFRALLQIR (MGRN1 RING domain (UniProt O60291))`: “lacZ reporter activity” 0.
For `QLRRLQEERTCKVCMDKEVSIVFIPCGHLVVCKDCAPSLRKCPICRSTIKGTVRTF (BIRC3 RING domain (UniProt Q13489))`, “lacZ reporter activity” read 0.
For `DAIPSLSECQCGICMEILVEPVTLPCNHTLCKPCFQSTVEKASLCCPFCRRRVSSWTRYH (RNF168 RING domain (UniProt Q8IYW5))`, “lacZ reporter activity” read 0.
Under “lacZ reporter activity”, `B4 (TRIM72 RING domain)` is recorded as 0.
`YWAMDSTFELCKICAESNKDVKIEPCGHLLCSCCLAAWQHSDSQTCPFCRCEIKGWEAVS (CBLC RING domain (UniProt Q9ULV8))` — result for “lacZ reporter activity”: 0.
`B5 (CUL9 RING domain)` — result for “lacZ reporter activity”: 0.
`B6 (TRIM69 RING domain)`: “lacZ reporter activity” 0.
For `FASPPDSNFVCSVCHGVLKRPARLPCSHIFCKKCILRWLARQKTCPCCRKEVKRKKVVH (RNF151 RING domain (UniProt Q2KHN1))`, “lacZ reporter activity” read 0.
`QLRRLQEERTCKVCMDKEVSVVFIPCGHLVVCQECAPSLRKCPICRGIIKGTVRTF (BIRC2 RING domain (UniProt Q13490))`: “lacZ reporter activity” 0.
For `B7 (MID1 RING domain)`, “lacZ reporter activity” read 0.

Set 5
Target: RNA binding protein fox-1 homolog 2, RRM domain, GST-SBP tag (RBFOX2, Homo sapiens, UniProt O43251-10, residues 100-194)
Method: RNA Bind-n-Seq
Molecule type: RNA
Matrix: in vitro
Tested at: 365 nM
Setting: natural RNA segment, single round, ends assumed
Baseline: no-protein control
Direction: higher = stronger binding
All sequences stand within: GGGAGUUCUACAGUCCGACGAUC … UGGAAUUCUCGGGUGCCAA
Target sequence (chain): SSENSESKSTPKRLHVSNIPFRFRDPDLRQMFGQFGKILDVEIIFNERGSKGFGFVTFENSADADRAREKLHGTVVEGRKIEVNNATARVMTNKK
For `UUAUUUUUUUCAACAUGCUUUCAACCUGUCAACAAAAACAAAACACACAAAAAAAGGGCAGUGUUUGAAGAUUGUUGAUUUUUUUCUGGGGAUAAUCUAUAUUAUAUUGA`, “RBNS enrichment (R)” read 0.618.
`GCUGUUUGAAUUUUUCUUUUCCUGUGCCAGAUAUAGAAUGCAGUCAACCCUUUUUCAGUAACUUAUGUUCACCAGUCUGUGCUUUUCUUCUCCCAGAAGGCUUUUCUUAG` — result for “RBNS enrichment (R)”: 1.36.
`GAAGAGAAAAAAUUCUCUAAAGCAGGUGAGCUUUAAUGAACAAAUGUGUAUUUUAUCUGAGUUUGAGUAGGGUGCGUUGUGGAUUUUGUUUUUUGGGUUUUUUUUUUUUU` — result for “RBNS enrichment (R)”: 1.48.
`GCGGCCGAGGGCUUGGGAUACUGCACAGUGCUACUGUGUCCUGUGAAGGCUGGUGCACUCAGGGCUGUGGGAAGGCAGAAUCACCUCAUCCAUUUGGCCUGUGAAGGAAG`: “RBNS enrichment (R)” 0.97.
`GCUUUGUGUAGAUUUGUGUAGAGCAGGAAAGCCAAGUUCACAGGUUGGGGUGCCUUCAUUUGCAUGCGUGUGCCCUGACCCCAAGAACCCCCAAAUUACUCACAAAUUAA`: “RBNS enrichment (R)” 7.09.
`ACCAAAGGUUAAGUGAGGUCCCCUUGAUUGAGGACUUCACCCCUUGAUUAAAGCAACUUCUGCUUCAUGCUUCCUGUGUGGUGUUGAGAGUGGGACUUGGGCCAUUAAGC`: “RBNS enrichment (R)” 0.277.
`GCAUGUCUAUGAUGUGUGUGUCGCUGGGAAGGUCAUGCUUGCCAGUUAUGGGUGGAUCGCAGCUCUUCGCCAUCAAGUGCAUUCAGGAUUAUUCCUGGGAGGUUGCUUAA`: “RBNS enrichment (R)” 0.417.
Under “RBNS enrichment (R)”, `GAUAGCUAUAUUCAAAAUGUCUAUAUGUUUAUUUGGACUUUUGAGGUUAAAGACAGUCAUAUAAACGUCCUGUUUCUGUUUUAAUGUUAUCAUAGAAUUUUUUAAUGAAA` is recorded as 0.82.
`UCUUACAGAAAAGUCCAUUUAAAAGUGAUCAUUUGUAAGACCAAAAUAUAAAUAAAAAGUUUCAAAAUCUAUCUGAAUUUGGAAUUCUUCUGGUUUGUUCUUUCAUGUUU` — result for “RBNS enrichment (R)”: 0.643.
Under “RBNS enrichment (R)”, `CCCGUGUCUGGAUGAAGGGCUUUCGGAAUGUAGAUGGUCAGGAGGUGCAUGCUGCUAUGUGAAUCUUAAAACUCCCUGCUGGAGGGAGGAGGCUGCUACAUUCCUCUCGU` is recorded as 4.85.
`GUGCCUGUCAACUUUGCAGACUGCUUUUGGCUUCUGGAUGCGCUCCUUCAGUACACAUCCUAUGGCGUGACCCCUCCCAGCCUCAGCCAUUCAGGGAACCGGCAGCGCCC`: “RBNS enrichment (R)” 0.297.
`CCCACCCCCGCACCCACUAAUUCUGCUUUUCCUGCCCCUUGCUCCGUAAAAGUAUCAAAUACUUUCUCCUUGGUAUCUCAAGGAGGUUUCUGAGAUAGGUAGAAGUCUUG`: “RBNS enrichment (R)” 0.436.

A few entries again (set 2):
`D92Y`: “relative binding score” 6.64%.
For `Y141P`, “relative binding score” read 4.12%.
Under “relative binding score”, `D3L` is recorded as 27.9%.
`R45D` — result for “relative binding score”: -2.69%.
`N165A` — result for “relative binding score”: 5.2%.
`R46N`: “relative binding score” -11.9%.
`Q10A` — result for “relative binding score”: 50.6%.
`R74I`: “relative binding score” 1.73%.
`T154D` — result for “relative binding score”: -8.93%.
Under “relative binding score”, `V118M` is recorded as 4.23%.
`E109K` — result for “relative binding score”: 1.88%.
`V161G` — result for “relative binding score”: -8.38%.
